Assay results pooled from the literature.
Compare with care: the assays were run in different laboratories. Numbers after ± are the reported error.

Structure (SMILES) = N#Cc1ccc(Nc2n[nH]c3nc(-c4ccccc4)nc(N)c23)cc1; organism = rhinovirus B42; assay = viral cytopathic effect; test system = HeLa; IC50 = 160 nM
Structure (SMILES) = COc1cccc2c(-c3ccc4c(c3O)[C@@H](C)N[C@H](C)C4)c(CO)cc(OC)c12; organism = Plasmodium falciparum; assay = asexual parasite growth, SYBR Green I; test system = clinical isolate SB_04, Malawi; IC50 = 3.6 ± 0.7 nM
Structure (SMILES) = Nc1nc(-c2ccc(Cl)cc2)nc2[nH]nc(Nc3cccc(F)c3)c12; organism = coxsackievirus B3; assay = viral cytopathic effect; test system = HeLa; IC50 = 7750 nM
Structure (SMILES) = CCCOC(=O)N1c2cc(CNC)ccc2[C@H](NC(=O)C(=O)Nc2ccc(Cl)c(F)c2)[C@H]1CNC(=N)N; organism = Human immunodeficiency virus 1; assay = viral infection, Env pseudovirus; test system = TZM-bl, 620345.c01 CRF01_AE; IC50 = > 100000 nM
Structure (SMILES) = Cc1ccc(-c2nc(N)c3c(Nc4ccc(Cl)cc4)n[nH]c3n2)cc1; organism = rhinovirus B42; assay = viral cytopathic effect; test system = HeLa; IC50 = 40 nM
Structure (SMILES) = COCCN(C)CC(=O)NC(Cc1ccc(-c2ccccc2)cc1)B(O)O (stereo not shown); organism = Plasmodium berghei; assay = hepatic merozoite formation; test system = HepG2, liver stage; setting = 72 h; IC50 = 150 nM
Structure (SMILES) = CCc1ccc(-c2nc(N)c3c(Nc4ccc(F)cc4)n[nH]c3n2)cc1; organism = coxsackievirus B3; assay = viral cytopathic effect; test system = HeLa; IC50 = 7180 nM
Structure (SMILES) = COc1cccc2c(-c3ccc(O)c4c3CC(C)(C)N=C4)ccc(OC(C)C)c12; organism = Plasmodium falciparum; assay = asexual parasite proliferation, SYBR Green I fluorescence; test system = Dd2; IC50 = 208 ± 31 nM
Structure (SMILES) = Cc1cc(N2CCC(CO)(C3CC3)C2=O)cc(C(=O)NCc2cc(F)cc(-c3cnn(C)c3)c2)n1 (stereo not shown); organism = Plasmodium falciparum; assay = parasite growth; test system = cPRS conditional knockdown line; setting = 72 h, together with: 50 nM anhydrotetracycline; IC50 = 50 nM
Structure (SMILES) = COC1C=COC2(C)Oc3c(C)c(O)c4c(c3C2=O)C2=NC3(CCN(CC(C)C)CC3)NC2=C(NC(=O)C(C)=CC=CC(C)C(O)C(C)C(O)C(C)C(OC(=O)Nc2cnccn2)C1C)C4=O (stereo not shown); organism = Mycobacteroides abscessus; assay = intracellular growth, visual read; test system = THP-1 derived macrophages, ATCC 19977; IC50 = 39 nM
Structure (SMILES) = COc1cc(O)c(-c2cc(-c3cc(-c4c(O)cc5c(c4OC)[C@H](C)N[C@H](C)C5)c4cc(C)cc(OC)c4c3O)c(O)c3c(OC)cc(C)cc23)c2c1[C@H](C)N[C@H](C)C2; organism = Plasmodium falciparum; assay = asexual parasite proliferation, SYBR Green I fluorescence; test system = 7G8; IC50 = 96 ± 14 nM
Structure (SMILES) = Cc1ccc(Nc2n[nH]c3nc(-c4cccc(F)c4)nc(N)c23)cc1; organism = coxsackievirus B3; assay = viral cytopathic effect; test system = HeLa; IC50 = 18700 nM
Structure (SMILES) = CC1=N[C@H](C)Cc2c(-c3ccc(C)cc3)ccc(O)c21; organism = Plasmodium falciparum; assay = asexual parasite proliferation, SYBR Green I fluorescence; test system = clinical isolate SB_05, Mozambique; IC50 = 923 ± 37 nM
Structure (SMILES) = CNCc1ccc2c(c1)C[C@H](CNC(=N)N)[C@H]2NC(=O)C(=O)Nc1ccc(Cl)c(F)c1; organism = Human immunodeficiency virus 1; assay = viral infection, Env pseudovirus; test system = TZM-bl, C2101.c01 CRF01_AE; IC50 = > 100000 nM
Structure (SMILES) = Nc1nc(-c2ccccc2)nc2[nH]nc(Nc3cccc(C(F)(F)F)c3)c12; organism = rhinovirus B42; assay = viral cytopathic effect; test system = HeLa; IC50 = 1430 nM
Structure (SMILES) = Cc1cc(N2CC[C@@](C#N)(C3CC3)C2=O)cc(NC(=O)Cc2ccccc2)n1; organism = Plasmodium falciparum; assay = parasite growth; test system = cPRS conditional knockdown line; setting = 72 h, together with: 3 nM anhydrotetracycline; IC50 = 3 nM
Structure (SMILES) = COc1cc2c(c(OC)c1)C(C)=[N+](c1ccc(OC)c3c(OC)cc(C)cc13)[C@@H](C)C2; organism = Plasmodium falciparum; assay = parasite growth, SYBR Green; test system = NF54; setting = blood stage; IC50 = 493 nM
Structure (SMILES) = CSCC[C@H](NC(=O)[C@H](CCCCN)NC(=O)[C@H](CCCNC(=N)N)NC(=O)[C@H](CO)NC(=O)[C@H](Cc1c[nH]c2ccccc12)NC(=O)[C@H](CCCNC(=N)N)NC(=O)[C@H](CC(C)C)NC(=O)CN)C(=O)N1CCC[C@H]1C(=O)N[C@@H](CS)C(=O)N[C@H](C(=O)N[C@@H](CO)C(=O)O)C(C)C; organism = Human immunodeficiency virus 1; assay = viral replication, inhibitor; test system = TZM-bl; IC50 = > 10000 nM
Structure (SMILES) = COc1cc(O)c(-c2cc(-c3cc(-c4c(O)cc(OC)c5c4C[C@@H](C)N[C@@H]5C)c4cc(C)cc(OC)c4c3O)c(O)c3c(OC)cc(C)cc23)c2c1[C@@H](C)N[C@H](C)C2; organism = Plasmodium falciparum; assay = asexual parasite proliferation, SYBR Green I fluorescence; test system = clinical isolate SB_05, Mozambique; IC50 = 49 ± 2.2 nM
Structure (SMILES) = COc1ccc(Nc2n[nH]c3nc(-c4ccccc4)nc(N)c23)cc1OC; organism = rhinovirus B42; assay = viral cytopathic effect; test system = HeLa; IC50 = 850 nM
Structure (SMILES) = COc1cc(C)c(-c2ccc3c(c2O)[C@@H](C)N[C@H](C)C3)c2ccc(-c3c(C)c(-c4ccc5c(c4O)[C@@H](C)N[C@H](C)C5)c4cccc(OC)c4c3O)c(O)c12; organism = Plasmodium falciparum; assay = asexual parasite proliferation, SYBR Green I fluorescence; test system = clinical isolate SB_05, Mozambique; IC50 = 95 ± 17 nM
Structure (SMILES) = COc1cncc(-c2cc(F)cc(CNC(=O)c3cc(N4CC[C@@](C#N)(C5CC5)C4=O)cc(C)n3)c2)c1; organism = Plasmodium falciparum; assay = parasite growth; test system = conditional knockdown control line; setting = 120 h, together with: 12.5 nM anhydrotetracycline; IC50 = 250 nM

A few entries again:
Structure (SMILES) = CNCc1ccc2c(c1)C[C@H](CNC(=N)N)[C@H]2NC(=O)C(=O)Nc1ccc(Cl)c(F)c1; organism = Human immunodeficiency virus 1; assay = viral infection, Env pseudovirus; test system = TZM-bl, C2101.c01 CRF01_AE; IC50 = > 100000 nM
Structure (SMILES) = Nc1nc(-c2ccccc2)nc2[nH]nc(Nc3cccc(C(F)(F)F)c3)c12; organism = rhinovirus B42; assay = viral cytopathic effect; test system = HeLa; IC50 = 1430 nM
Structure (SMILES) = Cc1cc(N2CC[C@@](C#N)(C3CC3)C2=O)cc(NC(=O)Cc2ccccc2)n1; organism = Plasmodium falciparum; assay = parasite growth; test system = cPRS conditional knockdown line; setting = 72 h, together with: 3 nM anhydrotetracycline; IC50 = 3 nM
Structure (SMILES) = COc1cc2c(c(OC)c1)C(C)=[N+](c1ccc(OC)c3c(OC)cc(C)cc13)[C@@H](C)C2; organism = Plasmodium falciparum; assay = parasite growth, SYBR Green; test system = NF54; setting = blood stage; IC50 = 493 nM
